Experimental data of several laboratories.
Parts stem from different laboratories: compare values within a part only. Positions count from the first letter of the parent shown.

Block 1
Target: CCNB2, cyclin fold, Cln2 fusion (human)
Method: yeast growth competition, sequencing
Medium: yeast
Notes: weak parent motif
Baseline: not given
Direction: higher = stronger binding
Endpoint: normalised enrichment score
Starting sequence: CDC42EP1 docking peptide (human); SLVVGKLSFDSSP; partner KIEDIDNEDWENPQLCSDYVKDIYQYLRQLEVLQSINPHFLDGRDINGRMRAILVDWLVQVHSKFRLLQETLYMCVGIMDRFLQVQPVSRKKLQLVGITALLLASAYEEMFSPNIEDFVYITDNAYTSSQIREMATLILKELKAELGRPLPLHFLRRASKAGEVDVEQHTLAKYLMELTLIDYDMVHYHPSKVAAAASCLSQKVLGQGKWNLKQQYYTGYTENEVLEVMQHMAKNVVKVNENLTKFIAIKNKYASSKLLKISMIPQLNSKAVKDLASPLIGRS
SLVVGKASFDSSP [L7A]: -0.239
SLVVGKLSADSSP [F9A]: -1.1
SLVVGKLSFDASP [S11A]: -0.596
SLVVGKLSFASSP [D10A]: -0.236
SLVVAKLSFDSSP [G5A]: 0.326
SLVVGKLSFDSSA [P13A]: -0.223

Block 2
Target: RNA binding protein fox-1 homolog 2, RRM domain, GST-SBP tag (RBFOX2, Homo sapiens, UniProt O43251-10, residues 100-194)
Method: RNA Bind-n-Seq
Molecule type: RNA
Medium: in vitro
Concentration: 365 nM
Notes: natural RNA segment, single round, ends assumed
Baseline: no-protein control
Direction: higher = stronger binding
Endpoint: RBNS enrichment (R)
Shared flanks, not repeated: GGGAGUUCUACAGUCCGACGAUC … UGGAAUUCUCGGGUGCCAA
Residues (chain): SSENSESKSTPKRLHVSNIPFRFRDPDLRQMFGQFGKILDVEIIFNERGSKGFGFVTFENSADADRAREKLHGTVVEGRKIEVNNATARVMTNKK
GCAGCGUUUGUUUGGAAUUUUCUUUGCUUUUGUUUUCUUUGCGGUUGUUCUGUGUGCAUGGAUUCCACACCUCUGCCGUAGGUAGAUCCGUCAGCGGGCAUUAUUACCGU: 2.81
GUCUGCAGAGCCAAAUCUUGCUCUUUCCAGCACAAUCGGGCAGCUCACGGAUUAGGAAUUAACAGCCAAAGGCUCCCACGGAAGGGACCAGAAGGGGCUGAGCCCCACCC: 0.375
AAGUUCACUACCAUUUGUCAAGAACCACUCUGUCCACAUCCUUUGACCUUUUGGCUUCCACGUCACCCAGAGUGUUAAAAUUUUUACUUAAUUCAUAGCUGUCCUUGAUU: 0.525
UGCUCCCGCUAUAUCCCAGGCCUCACCCUUUUCUGAUCAUUAUCAGAAAGAAUCCCCUGAACUUUUCAAGGGGUUUAUAUGGUAGCACCAAAUGGAGAAUGAGCAUCUAA: 0.612
UGUAAAACUCAGAAACGCAGUUGGAAAGUCCUUAUUCAUUUAGUAAGCGAAUAUAUUAUAAUAUGUAUAGAGCGCCUUUUGUGUAAGUCACUGGUCAGAAUCCUCACUGA: 0.249
CCCCCUUAGUCAAUAGCUUGCGAAAGACAUCUUAACUCACCCUUGCAGAUAAGUCUUGGAGUGAAACAAAUAAAUAGCAUUGUAUUCCUGGCCAUUUGCCUGGCUAGUUG: 0.506
AGGGCACCGCCUCCCCGUGUCCUGUGUUUGGUCAGACACCUGCCCUUCACCCUCUGUGUCCAGAGGCCCAGCAUCUGUCACACAUCAAGGGGGCGUUUAUUCAGUCUUAG: 0.328
GUAUUCAGGCUGCUUUUGCUGCCUUUGGCCAGAGAGCUGGUUGAAGAUGUUUGUAAUCGUUUUCAGUCUCCUGCAGGUUUCUGUGCCCCUGUGGUGGAAGAGGGCACGAC: 0.714
CAGCUUAAAAUCCAAAGUGUCAUAUUUACUGGUCCUGGAGACAAACUUGUUCAAAAGAACAUCAACGUGCAAUGUUUUAAGGUCUAUCUUAAGAAGCCCUGGCCAAAUUU: 0.344
GACUGGCAGUUAACUUGUGCAACUCACUGAAACCAAAAUAUUGAAGAAGUCCCACAUGGAAGACGCUGUUCCAGGAUCUUUACCUUUCCAAAGGAUGCAUACAGGAUAUU: 0.913
AUUACCCCAGGUAACACUGGGCAAAAAUCUGGGGUGCAUAAUAGGGAAUUCUGAAUUCUUAGAUUUGAUUAUCCCAGAUCAUUUUUGCUAAGAAAAAUUCUUAUUUCUUU: 0.475
UAAUAUCUUGCUGGAUUAAUGUUUUGUACAAUUACUAAAUUGUAUACAUUUUGUUAUAGAAUACUUUUUUCUAGUUUCAGUAAAUAAUGAAAAGGAAGUUAAUACCAAUA: 0.472

Block 3
Target: PABPC1L2, full length, GST fusion (mouse, UniProt A0ABA7IW68)
Method: RNAcompete
Molecule type: RNA
Medium: in vitro
Concentration: 20 nM
Notes: 7-mer, probes averaged, single round
Baseline: mean of 7-mers
Direction: higher = stronger binding
Endpoint: 7-mer Z-score
Construct (chain): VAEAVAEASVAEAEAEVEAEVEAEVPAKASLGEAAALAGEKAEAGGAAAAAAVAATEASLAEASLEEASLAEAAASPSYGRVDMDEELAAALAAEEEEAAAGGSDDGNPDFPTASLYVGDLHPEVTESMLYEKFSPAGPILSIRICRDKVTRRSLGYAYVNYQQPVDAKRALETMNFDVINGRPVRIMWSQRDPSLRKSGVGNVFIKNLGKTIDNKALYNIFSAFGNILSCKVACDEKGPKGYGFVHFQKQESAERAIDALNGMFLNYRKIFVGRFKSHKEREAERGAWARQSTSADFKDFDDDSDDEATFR
UUGGCUC: -0.19
ACCUUUG: -0.324
UUCGCGU: -0.327
AUUGCUC: -0.0953
AUUUUGA: -0.0645
CUUGUGC: -0.378
AUGUCUU: -0.188
AUAGAUG: 0.0243
CUCGACG: -0.199
GACGUGU: -0.273
CAUUGAA: 0.0823
GCUCGCU: -0.309

Other studies, line by line
PhoQ, residues 284 288 289 292 302 303 SSTMSV — fold induction (PhoP, residues 12 14 15 18 19 NQAHL (Escherichia coli, UniProt P23836); Sort-seq, item: YFP reporter; E. coli; PhoQ-PhoP variant library, together with: 10 µM Mg2+; baseline: high Mg2+ state, higher = stronger signaling): 1.1

Repeated from above (block 2):
GUCUGCAGAGCCAAAUCUUGCUCUUUCCAGCACAAUCGGGCAGCUCACGGAUUAGGAAUUAACAGCCAAAGGCUCCCACGGAAGGGACCAGAAGGGGCUGAGCCCCACCC: 0.375
AAGUUCACUACCAUUUGUCAAGAACCACUCUGUCCACAUCCUUUGACCUUUUGGCUUCCACGUCACCCAGAGUGUUAAAAUUUUUACUUAAUUCAUAGCUGUCCUUGAUU: 0.525
UGCUCCCGCUAUAUCCCAGGCCUCACCCUUUUCUGAUCAUUAUCAGAAAGAAUCCCCUGAACUUUUCAAGGGGUUUAUAUGGUAGCACCAAAUGGAGAAUGAGCAUCUAA: 0.612
UGUAAAACUCAGAAACGCAGUUGGAAAGUCCUUAUUCAUUUAGUAAGCGAAUAUAUUAUAAUAUGUAUAGAGCGCCUUUUGUGUAAGUCACUGGUCAGAAUCCUCACUGA: 0.249
